Results gathered from unrelated publications.
Numbered parts are unrelated; each lists some results of a single study. Positions count from the first letter of the parent shown.
UniProt O75417, sequence (whole entry, unmodified, looked up): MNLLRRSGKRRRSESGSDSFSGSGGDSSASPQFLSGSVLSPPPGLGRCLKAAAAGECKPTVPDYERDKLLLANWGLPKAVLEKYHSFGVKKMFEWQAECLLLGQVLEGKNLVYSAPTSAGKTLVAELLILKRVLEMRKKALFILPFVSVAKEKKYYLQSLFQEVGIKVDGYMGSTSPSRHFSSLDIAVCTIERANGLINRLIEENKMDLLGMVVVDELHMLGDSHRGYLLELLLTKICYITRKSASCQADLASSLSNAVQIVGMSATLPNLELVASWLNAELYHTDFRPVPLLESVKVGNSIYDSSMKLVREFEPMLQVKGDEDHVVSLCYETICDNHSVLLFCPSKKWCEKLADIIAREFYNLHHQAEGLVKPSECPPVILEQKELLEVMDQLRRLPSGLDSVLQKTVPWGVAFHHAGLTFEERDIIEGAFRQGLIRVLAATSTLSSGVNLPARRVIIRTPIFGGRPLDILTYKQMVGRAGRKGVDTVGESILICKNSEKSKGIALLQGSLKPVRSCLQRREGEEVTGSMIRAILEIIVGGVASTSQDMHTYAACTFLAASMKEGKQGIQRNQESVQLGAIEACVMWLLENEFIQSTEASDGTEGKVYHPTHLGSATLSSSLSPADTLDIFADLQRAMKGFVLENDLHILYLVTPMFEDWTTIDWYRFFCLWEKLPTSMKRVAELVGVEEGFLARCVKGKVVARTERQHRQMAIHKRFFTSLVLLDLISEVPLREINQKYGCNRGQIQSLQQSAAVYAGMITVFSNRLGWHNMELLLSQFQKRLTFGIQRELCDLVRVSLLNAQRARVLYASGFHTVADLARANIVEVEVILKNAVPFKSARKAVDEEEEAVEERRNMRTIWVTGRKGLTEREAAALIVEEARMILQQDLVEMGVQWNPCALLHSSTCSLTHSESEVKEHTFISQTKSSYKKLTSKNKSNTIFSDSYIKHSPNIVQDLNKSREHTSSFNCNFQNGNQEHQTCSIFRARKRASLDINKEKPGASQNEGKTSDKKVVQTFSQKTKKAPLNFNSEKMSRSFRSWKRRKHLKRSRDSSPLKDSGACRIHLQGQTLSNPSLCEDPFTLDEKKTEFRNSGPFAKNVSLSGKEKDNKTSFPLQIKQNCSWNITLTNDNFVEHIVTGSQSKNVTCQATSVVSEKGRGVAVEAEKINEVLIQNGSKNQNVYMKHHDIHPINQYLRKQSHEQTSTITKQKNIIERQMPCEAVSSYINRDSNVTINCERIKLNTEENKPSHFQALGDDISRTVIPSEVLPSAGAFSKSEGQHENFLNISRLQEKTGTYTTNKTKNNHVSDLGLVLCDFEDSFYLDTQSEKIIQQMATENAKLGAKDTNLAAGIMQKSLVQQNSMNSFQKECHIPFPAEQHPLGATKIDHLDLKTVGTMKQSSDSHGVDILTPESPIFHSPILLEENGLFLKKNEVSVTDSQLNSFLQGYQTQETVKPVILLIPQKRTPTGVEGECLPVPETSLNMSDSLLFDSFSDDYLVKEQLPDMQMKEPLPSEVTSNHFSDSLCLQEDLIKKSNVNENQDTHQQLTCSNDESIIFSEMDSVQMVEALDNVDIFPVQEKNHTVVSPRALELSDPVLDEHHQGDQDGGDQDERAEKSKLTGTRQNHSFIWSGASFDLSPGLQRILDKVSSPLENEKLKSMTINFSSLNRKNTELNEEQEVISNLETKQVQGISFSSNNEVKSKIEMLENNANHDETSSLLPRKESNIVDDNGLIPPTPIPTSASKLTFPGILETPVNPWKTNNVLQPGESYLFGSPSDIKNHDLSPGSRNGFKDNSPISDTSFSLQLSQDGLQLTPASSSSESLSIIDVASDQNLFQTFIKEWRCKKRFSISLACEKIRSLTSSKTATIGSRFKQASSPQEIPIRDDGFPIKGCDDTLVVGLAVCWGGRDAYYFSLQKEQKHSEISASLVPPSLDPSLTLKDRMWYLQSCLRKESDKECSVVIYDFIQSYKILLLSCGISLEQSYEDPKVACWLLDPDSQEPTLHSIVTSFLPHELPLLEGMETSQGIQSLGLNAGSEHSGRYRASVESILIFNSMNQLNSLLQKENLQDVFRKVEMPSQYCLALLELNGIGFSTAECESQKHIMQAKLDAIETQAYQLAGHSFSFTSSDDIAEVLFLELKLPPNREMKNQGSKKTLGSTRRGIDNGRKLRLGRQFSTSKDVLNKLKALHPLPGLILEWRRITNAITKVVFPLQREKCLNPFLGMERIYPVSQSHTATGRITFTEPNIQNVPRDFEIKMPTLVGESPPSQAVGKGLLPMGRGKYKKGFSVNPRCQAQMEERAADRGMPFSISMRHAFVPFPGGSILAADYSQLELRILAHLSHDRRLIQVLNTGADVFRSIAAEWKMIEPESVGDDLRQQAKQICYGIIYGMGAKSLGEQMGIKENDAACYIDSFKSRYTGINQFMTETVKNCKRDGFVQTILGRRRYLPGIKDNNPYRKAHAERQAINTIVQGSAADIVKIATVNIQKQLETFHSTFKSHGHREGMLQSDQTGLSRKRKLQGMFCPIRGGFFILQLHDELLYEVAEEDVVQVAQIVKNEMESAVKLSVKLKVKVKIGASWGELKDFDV
UniProt P60842, sequence (whole entry, looked up): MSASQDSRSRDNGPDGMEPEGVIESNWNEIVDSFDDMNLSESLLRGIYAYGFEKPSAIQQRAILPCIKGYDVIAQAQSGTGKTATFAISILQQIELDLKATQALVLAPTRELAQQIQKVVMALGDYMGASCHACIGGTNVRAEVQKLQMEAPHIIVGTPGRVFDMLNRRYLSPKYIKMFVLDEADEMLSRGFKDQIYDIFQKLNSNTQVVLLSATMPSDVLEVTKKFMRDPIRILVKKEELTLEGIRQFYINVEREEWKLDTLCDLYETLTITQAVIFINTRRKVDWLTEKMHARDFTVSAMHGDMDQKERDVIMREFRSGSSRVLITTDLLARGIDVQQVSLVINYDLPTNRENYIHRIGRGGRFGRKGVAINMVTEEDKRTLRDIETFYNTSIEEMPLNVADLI

Study 1
Target: Probable WRKY transcription factor 33, C-terminal DNA-binding domain (WRKY33, Arabidopsis thaliana, UniProt Q8S8P5, residues 346-449)
Technique: DNA-protein interaction ELISA
Form: double-stranded DNA, one strand shown
Medium: in vitro, bacterial lysate
Tested at: not given
Notes: whole dsDNA probe, crude lysate protein
Baseline: highest signal in screen
Reading: higher = stronger binding
Target sequence (chain): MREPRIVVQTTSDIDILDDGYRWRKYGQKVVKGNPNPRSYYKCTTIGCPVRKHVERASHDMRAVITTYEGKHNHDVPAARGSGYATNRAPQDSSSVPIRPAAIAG
With `AAAAAAGTGTGTGGCTCAGGATTCCCAAAA` the relative absorbance was 34.8 % of maximum.
With `AAAAAATAGTACCGCTAATGGCTGACAAAA` the relative absorbance was 37.5 % of maximum.
The relative absorbance of `AAAAAATATGTAGCTGCCGTTACGCTAAAA` is reported as 98 % of maximum.
With `AAAAAAGACCGCAGCAAGAATTAAATAAAA` the relative absorbance was 79 % of maximum.
With `AAAAAAAAATTTCGAGCCTCGGCGTAAAAA` the relative absorbance was 35.6 % of maximum.
`AAAAAATTCGGGACTAGTAGTGGTGAAAAA` gave a relative absorbance of 34.1 % of maximum.
`AAAAAAGGGTTTAGATGTCCTTCAAAAAAA` gave a relative absorbance of 28.2 % of maximum.
`AAAAAACTACCTCTACTCTAGCCTTAAAAA` has a relative absorbance of 27.8 % of maximum.

Study 2
Target: OGT, full length, His-tagged (human)
Technique: phage display, sequencing
Medium: in vitro
Tested at: 1 µg OGT
Notes: single substitutions, 15-mer displayed peptide, unchanged parent 5.27
Baseline: input library
Reading: higher = stronger binding
Parent: peptide; GDFPVMFMPKYSIIY
With `Y11Q` the fold enrichment was 0.998 fold.
The fold enrichment of `K10E` is reported as 1.84 fold.
`F7T` gave a fold enrichment of 1.35 fold.
The fold enrichment of `F3K` is reported as 2.43 fold.
With `D2P` the fold enrichment was 4.52 fold.
`F7L` has a fold enrichment of 1.7 fold.
For `P4W`, the fold enrichment was 0.11 fold.
The fold enrichment of `I13G` is reported as 0.11 fold.

Mixed results
P1: viral docking peptide; CKVKRKLFGSENI; partner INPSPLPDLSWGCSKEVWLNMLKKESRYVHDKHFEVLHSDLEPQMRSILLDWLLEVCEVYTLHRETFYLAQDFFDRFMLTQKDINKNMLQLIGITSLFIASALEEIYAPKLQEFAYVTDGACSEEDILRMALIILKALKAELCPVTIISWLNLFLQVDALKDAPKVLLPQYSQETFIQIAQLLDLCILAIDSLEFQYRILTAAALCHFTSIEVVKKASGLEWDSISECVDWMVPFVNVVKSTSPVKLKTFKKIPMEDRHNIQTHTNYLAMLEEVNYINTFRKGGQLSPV
Under “fluorescence polarization change”, `COC(=O)[C@H]1[C@H](c2ccccc2)[C@@]2(c3ccc(OC)cc3)Oc3cc(OC)cc(OC)c3[C@]1(O)[C@H]2O` is recorded as -1.6 mP (Eukaryotic initiation factor 4A-I (EIF4A1, Homo sapiens, UniProt P60842); RNA clamping, fluorescence polarization; concentration not given, mean of two replicates, together with: FAM-labelled poly r(AG)8 RNA).
`P1 V3A` — result for “normalised enrichment score”: 3.61 (CCNE2, cyclin fold, Cln2 fusion (human); yeast growth competition, sequencing; yeast; strong parent motif; baseline: not given, higher = stronger binding).
With `Oc1noc2c1CCNC2` the remaining activity was 98.4% (DNA polymerase theta, ATPase domain (POLQ, Homo sapiens, UniProt O75417); enzyme activity, inhibitor; 77 µM; baseline: untreated).

For quick reference, copied from above (mixed results):
Under “fluorescence polarization change”, `COC(=O)[C@H]1[C@H](c2ccccc2)[C@@]2(c3ccc(OC)cc3)Oc3cc(OC)cc(OC)c3[C@]1(O)[C@H]2O` is recorded as -1.6 mP (Eukaryotic initiation factor 4A-I (EIF4A1, Homo sapiens, UniProt P60842); RNA clamping, fluorescence polarization; concentration not given, mean of two replicates, together with: FAM-labelled poly r(AG)8 RNA).
